Results of several laboratories.
Each line is one published result; not all experiments were run side by side.
JAK3 JH1: Tyrosine-protein kinase JAK3, JH1 (JAK3, Homo sapiens, UniProt P52333)
Sequence of UniProt P52333 (whole entry, looked up): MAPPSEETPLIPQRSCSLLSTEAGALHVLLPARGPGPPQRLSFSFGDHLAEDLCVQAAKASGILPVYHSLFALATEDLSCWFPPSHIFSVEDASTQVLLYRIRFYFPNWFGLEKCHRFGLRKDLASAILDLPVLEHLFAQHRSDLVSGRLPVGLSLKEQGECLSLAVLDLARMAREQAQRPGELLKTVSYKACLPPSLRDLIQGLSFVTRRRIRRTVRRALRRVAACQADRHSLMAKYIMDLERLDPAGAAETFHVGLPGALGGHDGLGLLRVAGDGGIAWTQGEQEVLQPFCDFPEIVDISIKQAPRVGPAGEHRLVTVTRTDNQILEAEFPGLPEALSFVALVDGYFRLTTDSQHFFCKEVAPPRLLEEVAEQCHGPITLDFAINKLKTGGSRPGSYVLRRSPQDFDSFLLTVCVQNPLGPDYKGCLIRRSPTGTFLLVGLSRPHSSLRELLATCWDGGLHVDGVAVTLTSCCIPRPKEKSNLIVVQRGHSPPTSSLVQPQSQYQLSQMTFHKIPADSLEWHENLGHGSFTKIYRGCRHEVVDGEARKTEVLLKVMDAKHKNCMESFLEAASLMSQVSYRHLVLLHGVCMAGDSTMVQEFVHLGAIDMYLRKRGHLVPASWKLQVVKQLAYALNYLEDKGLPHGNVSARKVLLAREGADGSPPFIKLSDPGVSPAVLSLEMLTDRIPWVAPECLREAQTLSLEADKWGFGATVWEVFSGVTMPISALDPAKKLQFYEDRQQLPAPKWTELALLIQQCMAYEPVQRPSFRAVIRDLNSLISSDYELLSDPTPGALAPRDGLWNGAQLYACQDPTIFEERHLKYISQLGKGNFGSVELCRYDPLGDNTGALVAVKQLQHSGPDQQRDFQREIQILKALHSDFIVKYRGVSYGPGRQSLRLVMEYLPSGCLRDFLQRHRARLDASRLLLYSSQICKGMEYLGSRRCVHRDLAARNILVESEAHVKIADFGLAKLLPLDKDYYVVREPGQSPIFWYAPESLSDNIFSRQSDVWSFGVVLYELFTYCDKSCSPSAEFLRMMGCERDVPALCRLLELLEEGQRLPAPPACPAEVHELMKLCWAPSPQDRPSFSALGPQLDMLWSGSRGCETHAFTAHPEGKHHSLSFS
JAK3: Tyrosine-protein kinase JAK3 (JAK3, Homo sapiens, UniProt P52333)

Nc1ccc(/C=C/C(=O)N2CCc3c(oc4c(-c5ccc(F)cc5)cc(-c5ccc(C(=O)N6CCC(F)(F)CC6)cn5)cc34)C2)cn1 — remaining binding (JAK3 JH1; binding, competition with immobilised ligand; 1 µM): 83%
O=C(N[C@@H]1c2ccccc2C[C@H]1N1CCCC1)c1ccc(-c2ccnc3[nH]ccc23)nc1 — remaining binding (JAK3 JH1; binding, competition with immobilised ligand; 3 µM): 0%
C[C@H](NCc1ccc(-c2ccc(C(F)(F)F)cc2)cc1)C(N)=O — inhibition (JAK3 JH1; cell-free assay, competition with immobilised ligand; 1 µM): 10%
O=C1NC(=O)c2c1c1cc(F)c[n+]3c1c1c2c2cc(O)ccc2[n]1[Ru-4]312([N]=C=S)[S+]3CC[S+]1CC[S+]2CC3 (stereo not drawn) — remaining activity (JAK3; enzyme activity; 100 nM, human enzyme, added: 10 µM ATP; reference: untreated): 61%
N[C@H](C(=O)N1CCCC1)C1CCN(c2nccc3c(-c4ncc(Cl)cc4Cl)cccc23)CC1 — inhibition (JAK3; kinase activity, inhibitor; 10 µM, added: ATP 1 mM): 5.2%
CN(C)[C@H]1C[C@@]23CC[C@@]4(O2)C(=CC[C@]2(C)[C@@H](c5ccc6ccncc6c5)CC[C@H]24)C=C3[C@@H](O)[C@@H]1O — inhibition (Tyrosine-protein kinase JAK3, JH2 pseudokinase domain (JAK3, Homo sapiens, UniProt P52333); ATP probe labelling, inhibitor, KiNativ profiling; 1 µM): 6.4%
CC(C)[C@H]1NC(=O)C[C@H]2/C=C/CCSSC[C@@H](NC1=O)C(=O)N[C@H](Cc1cccc3ccccc13)C(=O)NCC(=O)O2 — inhibition (JAK3; enzyme activity, inhibitor; 10 µM): 0.6%
CCOC(=O)[C@@H]1Cc2c(cc([N+](=O)[O-])cc2[N+](=O)[O-])[C@H](O)[C@]12C(=O)Nc1ccc(Br)cc12 — remaining binding (JAK3; binding, competition with immobilised ligand; 0.1 µM): 46%
CS(C)(=O)=Nc1ccc(-c2ccc(-c3nc4cc(O[C@@H]5CO[C@H]6[C@@H]5OC[C@H]6O)[nH]c4cc3F)cc2)cc1 — inhibition (JAK3; enzyme activity, inhibitor; 10 µM): 14%

For quick reference, copied from above:
CC(C)[C@H]1NC(=O)C[C@H]2/C=C/CCSSC[C@@H](NC1=O)C(=O)N[C@H](Cc1cccc3ccccc13)C(=O)NCC(=O)O2 — inhibition (JAK3; enzyme activity, inhibitor; 10 µM): 0.6%
